Assay results pooled from the literature.
Parts stem from different laboratories: compare values within a part only.

Sample 1 — technique: RNA Bind-n-Seq; form: RNA; matrix: in vitro; tested at: 365 nM; baseline: no-protein control; reading: higher = stronger binding
Target: RNA binding protein fox-1 homolog 2, RRM domain, GST-SBP tag (RBFOX2, Homo sapiens, UniProt O43251-10, residues 100-194)
Notes: natural RNA segment, single round, ends assumed
Construct (chain): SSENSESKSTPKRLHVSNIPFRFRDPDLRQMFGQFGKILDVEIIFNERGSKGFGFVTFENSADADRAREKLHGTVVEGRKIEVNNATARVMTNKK
For `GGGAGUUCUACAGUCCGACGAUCUUGAAAACUGAAAAUGGGAAGGCAACUUGAAGUCAUUGUAUUUGAUUGAAAAUGUUUAAUACAUCUCAUUAUUGACAAAAUAUGUCAUCUUGUAUUUAUUUCAAGGAAACUGGAAUUCUCGGGUGCCAA`, “RBNS enrichment (R)” read 0.323.
`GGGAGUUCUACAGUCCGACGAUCUCGUGGAUUCAGCCAUGCAUGGACUGGGGUGUUCCCUGGCCCAUGGUCACCUGUGCCCCUCGUGUCUCCUCACAUGGGUGUCUGUGGUUCUCUCCUGUGUAAAUGUCACGUGGAAUUCUCGGGUGCCAA` — result for “RBNS enrichment (R)”: 0.273.
For `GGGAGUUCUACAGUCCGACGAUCGCAGGCAACGGGCUACAGCUUUAUUAGUGGUUCUCUAACUGUGGUCUCCUUGGGCCAAGCAAUUUCUUUAAAGGAAAAGUUGAUUAUGUAUGUGGGGUGCCAGGACCACUUGGAAUUCUCGGGUGCCAA`, “RBNS enrichment (R)” read 1.49.
`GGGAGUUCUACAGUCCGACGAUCCUCGUCAUGUUUUCUGCGGAAAAGAACAGGCAGGAAAGCUGCUCCGAGCAGUUAGAGAAAAGCCGCCUCACACUGUGUUUCACACUCGGGCAGUAAGUAUUGUAACGCCGUGGAAUUCUCGGGUGCCAA` — result for “RBNS enrichment (R)”: 0.354.
`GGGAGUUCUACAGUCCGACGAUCUUUUAGUCUAAGGAAAGCAUAGAUGAAGCAAUACUUUCCUUCUUUGAUGAAAAGCCUAGAAAUUAGUUCCUCUUAAAGUGCAAUAUUACUUAACCUCAGAAUCGGGCCAGUGGAAUUCUCGGGUGCCAA` — result for “RBNS enrichment (R)”: 0.359.
`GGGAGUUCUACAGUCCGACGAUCCACCUGCCAGACUGGGAUUUUCCUCUCAUCUAAGACACAAAGCGCCUAAGGUGCUCAGCGUCUCAAGAGGACUGGGGUCGAGGCUAAUCUCCAAGCUCCAUCUGCAAAGGUGGAAUUCUCGGGUGCCAA` — result for “RBNS enrichment (R)”: 0.213.
`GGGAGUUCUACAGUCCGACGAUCUCUUUGACUAGAAUCACAACCAUCCCAGAGCAUGUAUGACAAGCUUGUGUUUUGGCAGCAUUUUAAGGCAUGGUGGUCCCUCAGGCUUUGAAAACGCCUCUUGCCUAUGUUGGAAUUCUCGGGUGCCAA`: “RBNS enrichment (R)” 1.72.
Under “RBNS enrichment (R)”, `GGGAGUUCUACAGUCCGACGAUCCCUGCUGUAGAAGGUCACUUGGCUCCAUUGCCUGCUUCCAACCAAUGGGCAGGAGAGAAGGCCUUUAUUUCUCGCCCACCCAUUCCUCCUGUACCAGCACCUCCGUUUUCUGGAAUUCUCGGGUGCCAA` is recorded as 1.29.
Under “RBNS enrichment (R)”, `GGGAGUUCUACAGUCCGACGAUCCAGCCAGUUUUGGUUUAUGCCUAGAGCUACUUCAAGGAACUAGACUAAUUAGCUAUAUAGGCCCAGCGAUGCUUCUUAUUGAUCUUAAUAGUAUGCCCCUCCUUCCCCUGUGGAAUUCUCGGGUGCCAA` is recorded as 0.295.
`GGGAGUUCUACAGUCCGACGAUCUUCAGAACAUGAGCAGAAGAAUCGUUUUAUGCUAGUUAUUGCAUUCAUGGUUGAAACUCAACUUAGGGAAAGGGUUCCAAUGUAUUAAGCAAUGGGCUGCUUCUCCCCAAUGGAAUUCUCGGGUGCCAA` — result for “RBNS enrichment (R)”: 0.601.
`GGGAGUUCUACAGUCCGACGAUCAGCCAUUCCAUCUCUUCCGUCCGUCUGUCUGUCUGGGUUGUUUUGUUUUGUUGUUGUUUUGAGACAGGGUUUCUUUGUGUAGCCCUGACUGUUCUGGAACUUGCUCUGAAUGGAAUUCUCGGGUGCCAA`: “RBNS enrichment (R)” 1.2.
`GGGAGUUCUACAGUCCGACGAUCUGGGAGACAAAGGAGGAAUUUACUUUCUUCACCAAGUGCAAUAGAUUACUGAUGUGAUAUUCUGUUGCUUUACAGUUACAGUUGAUGUUUGGGGAUCGAUGUGCUCAGCCUGGAAUUCUCGGGUGCCAA`: “RBNS enrichment (R)” 0.338.

Sample 2 — technique: aptamer microarray, sandwich; form: DNA with 2'F-ANA; matrix: in vitro; tested at: 200 nM; together with: Cy3 exosite-II aptamer, 400 nM; reading: higher = stronger binding; oligonucleotide: GGTTGGTGTGGTTGG
Target: Prothrombin, mature alpha-thrombin (F2, Homo sapiens, UniProt P00734)
Notes: whole 15-mer aptamer, many near background
Under “mean fluorescence intensity”, `2'F-ANA at 2 5 6 7` is recorded as 73.1 a.u.
`2'F-ANA at 2 3 4 5 6 15`: “mean fluorescence intensity” 81.5 a.u.
For `2'F-ANA at 3 5 6 12 14 15`, “mean fluorescence intensity” read 76.1 a.u.
For `2'F-ANA at 1 2 3 4 6 7 8 9 12 14`, “mean fluorescence intensity” read 70.3 a.u.
Under “mean fluorescence intensity”, `2'F-ANA at 1 2 3 5 6 7 8 9 12 15` is recorded as 145 a.u.
For `2'F-ANA at 2 5 8 9 10 11 12 13`, “mean fluorescence intensity” read 73.8 a.u.
For `2'F-ANA at 3 6 7 8 10 11 15`, “mean fluorescence intensity” read 444 a.u.
`2'F-ANA at 1 2 3 5 6 12 13 14 15` — result for “mean fluorescence intensity”: 49.3 a.u.
Under “mean fluorescence intensity”, `2'F-ANA at 1 4 6 8 9 11 12 15` is recorded as 217 a.u.
`2'F-ANA at 1 2 3 9 10 11 12 14 15` — result for “mean fluorescence intensity”: 53 a.u.
`2'F-ANA at 2 3 7 8 13`: “mean fluorescence intensity” 880 a.u.
Under “mean fluorescence intensity”, `2'F-ANA at 2 5 6 7 14` is recorded as 47.6 a.u.
Under “mean fluorescence intensity”, `2'F-ANA at 1 3 7 9 10 12 14` is recorded as 59 a.u.
`2'F-ANA at 1 2 3 4 6 7 8 11 13 14`: “mean fluorescence intensity” 83.4 a.u.
For `2'F-ANA at 3 4 7 8 9 10 12 15`, “mean fluorescence intensity” read 369 a.u.
For `2'F-ANA at 2 4 5 8 10 11 12 15`, “mean fluorescence intensity” read 51.1 a.u.
`2'F-ANA at 1 2 4 6 7 10 12`: “mean fluorescence intensity” 58.9 a.u.
Under “mean fluorescence intensity”, `2'F-ANA at 2 3 4 7 8 9 11 14 15` is recorded as 256 a.u.
`2'F-ANA at 1 4 6 8 9 10 11 12 15` — result for “mean fluorescence intensity”: 54.6 a.u.
Under “mean fluorescence intensity”, `2'F-ANA at 1 2 6 7 9 11 12 13 14` is recorded as 58.8 a.u.
`2'F-ANA at 1 5 8 9 13 14`: “mean fluorescence intensity” 43.9 a.u.
`2'F-ANA at 2 4 8 14 15` — result for “mean fluorescence intensity”: 140 a.u.
For `2'F-ANA at 3 6 7 8 10 11 12 13`, “mean fluorescence intensity” read 435 a.u.
Under “mean fluorescence intensity”, `2'F-ANA at 1 2 5 10 12 14 15` is recorded as 47.5 a.u.
`2'F-ANA at 1 3 4 5 7 8 11 13`: “mean fluorescence intensity” 53.6 a.u.

Sample 3 — technique: protein binding microarray; form: double-stranded DNA, one strand shown; matrix: in vitro; tested at: not given; baseline: not given; reading: higher = stronger binding
Target: Histone acetyltransferase KAT6A, winged helix 1, GST fusion (KAT6A, Homo sapiens, UniProt Q92794, residues 1-85)
Notes: 8-mer, flanks averaged, mean of 2 arrays, mostly near background
Construct (chain): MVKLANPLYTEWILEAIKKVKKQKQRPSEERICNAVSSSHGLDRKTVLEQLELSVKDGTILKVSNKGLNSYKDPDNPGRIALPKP
`TAGCGCCA` has an E-score of 0.23.
The E-score of `CCATCCGG` is reported as -0.0109.
`CTTACCCA` gave an E-score of -0.146.
For `CACCCCAG`, the E-score was -0.133.
The E-score of `ATCCTCCA` is reported as -0.283.
`GTCTAACA` gave an E-score of -0.0173.
With `GACGGCGC` the E-score was 0.445.
`AGAAGCGC` has an E-score of 0.299.
For `AGCATAAT`, the E-score was -0.0939.
`ACTAGCCT` has an E-score of -0.0827.
The E-score of `TGACAAAA` is reported as -0.183.
The E-score of `CACGGTAG` is reported as 0.136.
With `CGAATGCA` the E-score was -0.1.
With `CAATAGCA` the E-score was -0.145.
For `GAGGTCTA`, the E-score was -0.133.
The E-score of `CGTCTACC` is reported as 0.0687.
`GAACACCC` gave an E-score of -0.0229.
`AAACGTGA` has an E-score of -0.138.
For `CCGATTAA`, the E-score was 0.093.
The E-score of `ATTTTGCA` is reported as -0.297.
With `ATTAAAAG` the E-score was 0.0114.
`AAAAGATC` has an E-score of -0.162.
`CAGCGGGC` has an E-score of 0.237.
`ACAAGAAT` gave an E-score of -0.184.
For `ATGGCTAG`, the E-score was -0.1.

Sample 4 — technique: universal PBM; form: double-stranded DNA, one strand shown; matrix: in vitro; tested at: 600 nM; reading: higher = stronger binding
Target: Sal-like protein 4, full length isoform A (SALL4, Homo sapiens, UniProt Q9UJQ4, residues 1-1053)
Sequence of UniProt Q9UJQ4 (whole entry, looked up): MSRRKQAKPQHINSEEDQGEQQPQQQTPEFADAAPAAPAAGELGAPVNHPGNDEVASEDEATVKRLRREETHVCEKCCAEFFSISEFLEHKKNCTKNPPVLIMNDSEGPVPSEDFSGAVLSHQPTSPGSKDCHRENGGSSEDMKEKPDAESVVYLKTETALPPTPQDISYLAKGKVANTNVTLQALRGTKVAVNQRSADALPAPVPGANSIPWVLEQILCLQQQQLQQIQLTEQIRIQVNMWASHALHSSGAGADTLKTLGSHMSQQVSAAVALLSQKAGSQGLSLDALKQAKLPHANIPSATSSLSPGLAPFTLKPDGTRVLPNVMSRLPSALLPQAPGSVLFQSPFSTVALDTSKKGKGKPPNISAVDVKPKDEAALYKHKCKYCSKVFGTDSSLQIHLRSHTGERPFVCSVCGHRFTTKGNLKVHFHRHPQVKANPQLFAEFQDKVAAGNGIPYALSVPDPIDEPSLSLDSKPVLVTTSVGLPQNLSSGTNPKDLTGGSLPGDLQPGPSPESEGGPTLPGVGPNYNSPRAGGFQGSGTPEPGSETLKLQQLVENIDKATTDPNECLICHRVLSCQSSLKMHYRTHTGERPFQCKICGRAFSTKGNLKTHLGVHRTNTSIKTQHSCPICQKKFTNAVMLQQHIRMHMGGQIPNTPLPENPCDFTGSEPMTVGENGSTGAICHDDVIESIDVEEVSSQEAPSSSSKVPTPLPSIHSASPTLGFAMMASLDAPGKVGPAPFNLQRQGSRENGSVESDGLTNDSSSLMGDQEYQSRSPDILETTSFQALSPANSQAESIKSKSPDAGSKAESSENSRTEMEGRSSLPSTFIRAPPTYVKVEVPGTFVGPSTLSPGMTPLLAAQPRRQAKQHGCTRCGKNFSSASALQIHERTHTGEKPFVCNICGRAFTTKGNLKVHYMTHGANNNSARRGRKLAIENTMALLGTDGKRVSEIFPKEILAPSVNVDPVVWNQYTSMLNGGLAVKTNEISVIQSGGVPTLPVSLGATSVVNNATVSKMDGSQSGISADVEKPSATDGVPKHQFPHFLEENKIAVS
Notes: 8-mer, flanks averaged, mean of replicates
`CTCGGTTA` has an E-score of -0.0929.
With `CCCCGCCA` the E-score was -0.0746.
For `CATGCTAA`, the E-score was 0.108.
With `CTGGAACC` the E-score was -0.228.
`CCTGATTC` has an E-score of -0.121.
For `GCTACCCC`, the E-score was -0.267.
With `ACATGTGG` the E-score was 0.0452.
The E-score of `ATCCCAAT` is reported as 0.208.
With `TGCCAAAA` the E-score was 0.0862.
`AGCTAACA` has an E-score of -0.028.
`CGCTAGTA` has an E-score of 0.0144.
`AGATCTGA` has an E-score of -0.0569.
`CATCTTAC` has an E-score of 0.0775.
For `GACAGTCA`, the E-score was -0.085.
The E-score of `ATCCCGAC` is reported as -0.117.
With `AAGCGCTA` the E-score was 0.0897.
The E-score of `TATCCTAA` is reported as 0.203.
`CACATACA` gave an E-score of 0.148.
With `GAACGCCC` the E-score was -0.195.
`AGACGCTA` gave an E-score of -0.107.
The E-score of `CTGATGGA` is reported as -0.0851.
For `ATGTCTGA`, the E-score was 0.158.

Other studies, line by line
`PhoQ, residues 284 288 289 292 302 303 SCEHLI` has a fold induction of 5.45 (PhoP, residues 12 14 15 18 19 TQCLL (Escherichia coli, UniProt P23836); Sort-seq, item: YFP reporter; E. coli; PhoQ-PhoP variant library, together with: 10 µM Mg2+; baseline: high Mg2+ state, higher = stronger signaling).
